Measured values collected from several papers.
Values joined by “and” are separate records of one study, mostly repeats; a detail may differ. ± gives the spread as reported.

O=C(O)/C=C/c1ccc(O[C@@H]2O[C@H](C(=O)O)[C@@H](O)[C@H](O)[C@H]2O)c(O)c1 — plasma concentration (human plasma; median): 360 nM
O=C(O)CCC(=O)O.[2H]C([2H])([2H])Oc1cc(C)c2[nH]ccc2c1CN1CC[C@@H](C2CC2)C[C@H]1c1ccc(C(=O)O)cc1 — subjects with allergic dermatitis TEAE (multiple ascending dose; healthy Chinese subjects; 125 mg twice daily): 0%
O=C(COc1ccc(Cl)cc1)NC12CC(c3nnc([C@H]4C[C@@H](OC(F)(F)F)C4)o3)(C1)C2 — drug-related TEAE participants (human both sexes; oral, 45 mg once daily, 14 days): 83.3%
COc1ccc2[nH]c([S+]([O-])Cc3ncc(C)c(OC)c3C)nc2c1 (stereo not shown) — R/S ratio (human male; oral, dose not given, 2 h, after rifampicin): 0.76
COc1ccc([C@@H](O)c2cc(-c3ncnc4cc(N5CCOCC5)ccc34)c(F)cc2Cl)nn1 — radiation skin injury TEAE (locally advanced rectal cancer; oral, 250 mg, added: capecitabine and radiotherapy): 0%
Cc1nc(-c2ccc(OCC(C)C)c(C#N)c2)sc1C(=O)O — subjects with abnormal hepatic function (healthy Chinese subjects; oral, 40 mg, fed): 2.5%
CO[C@H]1/C=C/O[C@@]2(C)Oc3c(C)c(O)c4c(O)c(c(/C=N/N5CCN(C)CC5)c(O)c4c3C2=O)NC(=O)/C(C)=C\C=C\[C@H](C)[C@H](O)[C@@H](C)[C@@H](O)[C@@H](C)[C@H](OC(C)=O)[C@@H]1C — amount permeated (starch gel membrane permeability; Gram-negative envelope surrogate; 200 µM, 45 min, pH 7.4): 1.68 nmol
COCCOCc1ccc(-c2cc3onc(-c4ccccc4)c3c(=O)n2C)cc1 — apoptotic cells (COS-7; 10 µM, 24 h, 0.1% DMSO, unit not given; baseline: vehicle control): 1.03 ± 0.05
C=CC(=O)N1CCC(c2ccc(C(N)=O)c(-c3ccc(Oc4ccccc4)cc3)n2)CC1 — incidence of serious cryptococcal meningitis (CTCAE 4.03; patients with relapsed/refractory MCL; oral, dose not given): 0.9%
O=C1CCc2ccc(OCCCCN3CCN(c4cccc(Cl)c4Cl)CC3)cc2N1 — adverse event incidence (refers to: Rigidity; patients, CYP2D6 intermediate metabolizers; dose not given, long-acting oral or depot): 8.6%
O=C(CCc1ccc(O)cc1)c1c(O)cc(O)cc1O — plasma concentration (human plasma; median, both sexes): 6040 nM
CC(C)(C(=O)N1CCOc2c(C#N)cncc2C1)C(F)F — subjects with adverse event (refers to: Gastrointestinal disorders; human; oral, 15 mg twice daily, 14 days, multiple ascending dose): 25%
Cc1cc(NC2CCN(C(=O)OC3CCN(C(=O)/C=C/CN(C)C)C3)CC2)n2ncc(C(C)C)c2n1 (stereo not shown) — patients with adverse event (Phase I dose escalation CTCAE v4.0, refers to: blood creatinine increased; patients with advanced solid tumours; dose not given, Total dosing any grade): 6%
CCc1c(-c2ccccc2)c(-c2ccccc2)nn1-c1ccccc1-c1cccc(OCC(=O)O)c1 — clearance observed (Sprague-Dawley rat; intravenous, dose not given): 13.8 mL/min/kg and 10.1 mL/min/kg and 10.7 mL/min/kg
Cc1cccc(Cn2cc(CO)c3cnccc32)c1 — ALT (F344 rat, male, serum; oral, 100 mg/kg/day, 2 days): 62 U/L and 79 U/L and 71 U/L
CCNC(=O)[C@@H]1CCCN1C(=O)[C@H](CCCNC(=N)N)NC(=O)[C@H](CC(C)C)NC(=O)[C@@H](CC(C)C)NC(=O)[C@H](Cc1ccc(O)cc1)NC(=O)[C@H](CO)NC(=O)[C@H](Cc1c[nH]c2ccccc12)NC(=O)[C@H](Cc1c[nH]cn1)NC(=O)[C@@H]1CCC(=O)N1 — tolerability (healthy female volunteers; dose not given, all treatment groups): not toxic
COc1cc(Nc2ncc3c(n2)-c2ccc(Cl)cc2C(c2c(F)cccc2OC)=NC3)ccc1C(=O)O — patients with sore throat (cancer patients; oral, dose not given, grade 1 any attribution, added: pembrolizumab): 13%
COc1c(O)c(C)cc2c1C(=O)c1c(cc(O)c(O)c1O)C2=O — cell viability (HepaRG co-cultured with HK-2; MTT; 133.33 µM, 24 h; baseline: untreated control): 57.5 ± 6.27%
CCc1cc(C(=O)NC)c2nccc(N3CCc4c(cc(Cn5ccnc5)cc4-c4cn(C)nc4C(F)(F)F)C3=O)c2c1 — change in clinical chemistry or haematology parameter (refers to: DBIL; Sprague Dawley rat; oral, 100 mg/kg once daily, 7 days; baseline: vehicle): -18.8%
C[C@H](O)C(=O)C1=Nc2c(nc(N)[nH]c2=O)NC1 — drug-related TEAE incidence (healthy human volunteers; oral, 20 mg/kg, 4 days, monotherapy; baseline: subjects): 0%
CCN1/C(=C/C(C)=O)Sc2ccc(F)cc21 — systolic blood pressure change (cynomolgus monkey; oral, 10 mg/kg, 0.5 h post-dose; baseline: pre-dose): 103 ± 5.1%
CC(C)c1nc(CN(C)C(=O)N[C@@H](CCN2CCOCC2)C(=O)N[C@H](CC[C@H](Cc2ccccc2)NC(=O)OCc2cncs2)Cc2ccccc2)cs1 — drug-related TEAE incidence (refers to: Dizziness; human; oral, 150 mg): 0%
NS(=O)(=O)c1cc(C(=O)O)c(NCc2ccco2)cc1Cl — subjects with adverse event (refers to: arthropod bite; healthy men; oral, 8 days, treatment-emergent, crossover trial): 0%
CN1CCN(c2cccc3c2CCN(C(=O)/C=C/c2c(-n4cnnn4)ccc(Cl)c2F)[C@@H]3C(=O)Nc2ccc(C(=O)O)cc2)C(=O)C1 — subjects with treatment-related adverse event (healthy human subjects; intravenous infusion, 4 mg/h, 2 h): 0%
CCC[C@@H]1C[C@@H](C(=O)N[C@@H]([C@H]2O[C@H](SC)[C@H](O)[C@@H](O)[C@H]2O)[C@@H](C)O)N(C)C1 — amount permeated (starch gel membrane permeability; Gram-negative envelope surrogate; 200 µM, 30 min, pH 7.4): 1.41 nmol
COc1cc(/C=C/C(=O)O)ccc1O — plasma concentration (human plasma; mean): 1380 nM
CCn1cc(C(=O)O)c(=O)c2cc(F)c(N3CCNCC3)cc21 — amount permeated (starch gel membrane permeability; Gram-negative envelope surrogate; 200 µM, 45 min, pH 7.4): 2.81 nmol
COc1c(O[C@@H]2O[C@H](CO)[C@@H](O)[C@H](O)[C@H]2O)c(C)cc2c1C(=O)c1c(O)cccc1C2=O — cell viability (HepaRG co-cultured with HK-2; MTT; 33.33 µM, 24 h; baseline: untreated control): 74.5 ± 10.5%
CO[C@H]1C[C@@H]2CC[C@@H](C)[C@@](O)(O2)C(=O)C(=O)N2CCCC[C@H]2C(=O)O[C@H]([C@H](C)C[C@@H]2CC[C@@H](OC(=O)NCCOCCOCCOCCOCCOCCOCCOCCOCCC(=O)N3CCc4cc(Cn5nc(-c6ccc7oc(N)nc7c6)c6c(N)ncnc65)ccc4C3)[C@H](OC)C2)C[C@@H](O)[C@H](C)/C=C(\C)[C@@H](O)[C@@H](OC)C(=O)[C@H](C)C[C@H](C)/C=C/C=C/C=C/1C — Cmax (human, plasma; intravenous, 12 mg, cycle 1 day 15, arithmetic mean): 752 ng/mL
CCC(C)n1ncn(-c2ccc(N3CCN(c4ccc(OCC5COC(Cn6cncn6)(c6ccc(Cl)cc6Cl)O5)cc4)CC3)cc2)c1=O (stereo not shown) — trough plasma concentration (human, plasma; oral, dose not given, day 17 predose, median): 161 ng/mL
CN(C)c1cc(NC(=O)CNC(C)(C)C)c(O)c2c1C[C@H]1C[C@H]3[C@H](N(C)C)C(O)=C(C(N)=O)C(=O)[C@@]3(O)C(O)=C1C2=O — amount permeated (starch gel membrane permeability; Gram-negative envelope surrogate; 200 µM, 90 min, pH 7.4): 3.48 nmol
O=C(O)/C=C/c1ccccc1O — plasma concentration (human plasma; median): 110 nM
C=CCN1CC(=O)N2[C@@H](Cc3ccc(O)cc3F)C(=O)N(Cc3cccc(N4CC(N5CCN(CC)CC5)C4)n3)C[C@@H]2N1C(=O)NCc1ccccc1 — treatment-related ALT increased (advanced solid tumour patients; oral, 100 mg twice daily, grade ≥3, dose-escalation): 0%
NC[C@@H]1O[C@H](O[C@H]2[C@@H](O)[C@H](O[C@@H]3[C@@H](O)[C@H](N)C[C@H](N)[C@H]3O[C@H]3O[C@H](CO)[C@@H](O)[C@H](O)[C@H]3N)O[C@@H]2CO)[C@H](N)[C@@H](O)[C@@H]1O — body weight (NSG mice; dose not given, day 1 of treatment): 21.3 g and 23.4 g and 22.4 g and 21.9 g and 22.5 g and 20.4 g and 22.1 g and 23.5 g
COc1cc2c3c(n(CCCN4CCOCC4)c(=O)c2cc1OC)-c1cc2c(cc1C3=O)OCO2 — clearance (Fischer 344 rat, plasma; intravenous bolus, 12 mg/m^2): 30 to 50 L/h/m²
C=CC(=O)NC1CCN(c2ncc3ncnc(Nc4ccc(Oc5ccc6c(c5)ncn6C)c(C)c4)c3n2)CC1 — adverse events incidence (refers to: gastrointestinal disorders (SOC); human male; oral, dose not given, CTCAE on-treatment AEs): 0%
O=C(OC(C(F)(F)F)C(F)(F)F)N1CCN(Cc2cccc(Oc3ccccc3)c2)CC1 — k2 (PET blocking study; rhesus monkey, brain Pons; 0.01 mg/kg, compound pretreatment, added: [18F]T-401 tracer): 0.089 min⁻¹
CC(C)(C)c1ccc(O)c(CN(Cc2cc(C(C)(C)C)ccc2O)C2CCC(NC(N)=O)CC2)c1 (stereo not shown) — elimination rate constant (C57BL/6 mouse, male, brain; oral, 10 mg/kg): 2.61e-05 s⁻¹
CNC(=O)c1ccc(-c2cnc3ncc(Cc4ccc5ncccc5c4)n3n2)cc1F — patients with adverse event (refers to: Pruritus, all grades; cancer patients; oral, 600 mg twice daily, expansion cohort, any causality): 3%
O=S(=O)(O)Oc1ccc(CCO)cc1 — plasma concentration (human plasma; mean): 202 nM
O=C1CC[C@H](N2Cc3cc(N4CCN(CC5CCN(c6ccc([C@@H]7c8ccc(O)cc8CC[C@@H]7c7ccccc7)cc6)CC5)CC4)ccc3C2=O)C(=O)N1 — participants with adverse event (refers to: Contusion; human; oral, 200 mg, added: dabigatran etexilate 75 mg): 8.3%
O=Cc1ccc(O)cc1 — plasma concentration (human plasma; median, both sexes): 1660 nM
O=C(O)CCc1nc(-c2ccccc2)c(-c2ccccc2)o1 — apoptotic cells (COS-7; 50 µM, 24 h, 0.1% DMSO, unit not given; baseline: vehicle control): 0.74 ± 0.1
O=C(Nc1ccc(OC(F)(F)Cl)cc1)c1cnc(N2CC[C@@H](O)C2)c(-c2ccn[nH]2)c1 — in vitro half-life (rat liver microsomes; 1 µM, pH 7.4, 37 °C, added: NADPH 1 mM, shikonin 10 µM): 12.5 ± 3.48 h
Cc1c2oc3c(C)ccc(C(=O)N[C@@H]4C(=O)N[C@H](C(C)C)C(=O)N5CCC[C@H]5C(=O)N(C)CC(=O)N(C)[C@@H](C(C)C)C(=O)O[C@@H]4C)c3nc-2c(C(=O)N[C@@H]2C(=O)N[C@H](C(C)C)C(=O)N3CCC[C@H]3C(=O)N(C)CC(=O)N(C)[C@@H](C(C)C)C(=O)O[C@@H]2C)c(N)c1=O — V3 (population PK model; human): 334 L/70 kg
Cc1ccc([C@@H]2O[C@H](CO)[C@@H](O)[C@H](O)[C@H]2O)cc1Cc1ccc(-c2ccc(F)cc2)s1 — urinary chloride excretion change (Japanese type 2 diabetes patients; 400 mg, day 2, 24 h urine collection; baseline: baseline): -37 mEq

For quick reference, copied from above:
COc1c(O)c(C)cc2c1C(=O)c1c(cc(O)c(O)c1O)C2=O — cell viability (HepaRG co-cultured with HK-2; MTT; 133.33 µM, 24 h; baseline: untreated control): 57.5 ± 6.27%
O=Cc1ccc(O)cc1 — plasma concentration (human plasma; median, both sexes): 1660 nM
O=C(COc1ccc(Cl)cc1)NC12CC(c3nnc([C@H]4C[C@@H](OC(F)(F)F)C4)o3)(C1)C2 — drug-related TEAE participants (human both sexes; oral, 45 mg once daily, 14 days): 83.3%
O=C(O)/C=C/c1ccccc1O — plasma concentration (human plasma; median): 110 nM
CCC[C@@H]1C[C@@H](C(=O)N[C@@H]([C@H]2O[C@H](SC)[C@H](O)[C@@H](O)[C@H]2O)[C@@H](C)O)N(C)C1 — amount permeated (starch gel membrane permeability; Gram-negative envelope surrogate; 200 µM, 30 min, pH 7.4): 1.41 nmol
CN1CCN(c2cccc3c2CCN(C(=O)/C=C/c2c(-n4cnnn4)ccc(Cl)c2F)[C@@H]3C(=O)Nc2ccc(C(=O)O)cc2)C(=O)C1 — subjects with treatment-related adverse event (healthy human subjects; intravenous infusion, 4 mg/h, 2 h): 0%
